Assay results of several laboratories.
A part holds a random share of what one study measured.

Set 1
Target: Histone acetyltransferase KAT6A, winged helix 2, GST fusion (KAT6A, Homo sapiens, UniProt Q92794, residues 85-181)
Method: protein binding microarray
Form: double-stranded DNA, one strand shown
Matrix: in vitro
Tested at: not given
Setting: 8-mer, flanks averaged, mean of 2 arrays, mostly near background
Baseline: not given
Reading: higher = stronger binding
Target sequence (chain): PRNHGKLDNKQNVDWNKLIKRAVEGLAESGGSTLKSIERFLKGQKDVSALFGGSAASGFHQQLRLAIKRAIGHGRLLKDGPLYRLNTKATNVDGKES
| Strand | E-score |
| --- | --- |
| AGCAATGA | -0.0317 |
| CGTCATAA | -0.121 |
| GTTGCGAA | 0.133 |
| GTGCGTTA | -0.00531 |
| GTTATCGA | -0.23 |
| ACGCAAAG | -0.00138 |
| ATTTAAGA | 0.0144 |
| CTACAAGA | -0.000175 |
| CGGCCGAC | 0.166 |
| CCTCTGAA | -0.0367 |
| ACCCGAGG | 0.0455 |
| ACCCGCGC | 0.236 |
| AGCGAGAC | -0.0642 |
| TCCCCGAA | 0.0611 |
| TAAACCCA | 0.0214 |
| AGAGTATC | -0.113 |
| CGAGACCG | 0.147 |
| CCCCGATC | 0.147 |
| ATACGATC | -0.103 |
| CTACAAAC | -0.216 |
| ACGGAACC | -0.0166 |
| CCCGGCAC | 0.0301 |
| GATTATCC | 0.0616 |

Set 2
Target: Interferon regulatory factor 7, full length, phosphomimetic (IRF7, Homo sapiens, UniProt Q92985, residues 1-503, S471D/S472D/S475D/S476D/S477D/S483D/S484D/S487D)
Method: protein-binding microarray
Form: double-stranded DNA, one strand shown
Matrix: in vitro
Tested at: 2200 nM top
Setting: 60-bp whole probe
With: salmon DNA 0.4 mg/ml
Baseline: random background probes
Reading: higher = stronger binding
All sequences stand within: GCCTAGCAC … GTCTTGATTCGCTTGACGCTGCTG
Residues (chain): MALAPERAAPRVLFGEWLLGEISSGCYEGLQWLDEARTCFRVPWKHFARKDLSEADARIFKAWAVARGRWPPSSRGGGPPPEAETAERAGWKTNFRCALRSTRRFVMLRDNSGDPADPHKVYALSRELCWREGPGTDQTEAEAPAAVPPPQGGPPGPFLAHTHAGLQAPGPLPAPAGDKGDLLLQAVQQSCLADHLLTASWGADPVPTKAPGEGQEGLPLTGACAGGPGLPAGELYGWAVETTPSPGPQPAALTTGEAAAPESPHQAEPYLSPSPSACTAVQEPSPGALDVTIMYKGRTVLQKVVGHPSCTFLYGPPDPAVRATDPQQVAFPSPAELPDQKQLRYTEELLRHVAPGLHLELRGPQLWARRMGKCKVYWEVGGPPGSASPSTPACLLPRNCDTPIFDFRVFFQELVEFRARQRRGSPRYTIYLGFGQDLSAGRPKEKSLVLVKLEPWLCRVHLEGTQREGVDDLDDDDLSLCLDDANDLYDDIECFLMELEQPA
| Strand | fitted relative affinity [z-score] |
| --- | --- |
| TTAGGACTGGACTTTCGGGTAGTGCTA | 3.13 |
| GACGGACTGGGGTTTCGAGACGTGCTA | 0.495 |
| GACGGTTTCGACTATCGGAACGTGCTA | 3.37 |
| TTGGGACTGGGGACTGGGTTAGTGCTA | -0.818 |
| TCAGCCATCAATATCTGACTGTGCTAG | 0.33 |
| TCAATCCCCAGTCTCATACTGTGCTAG | 1.04 |
| GACGATCTCAGTCTCGAGATGTGCTAG | 0.26 |
| GGGTCTCTGGGTCGGGCAGGGTGCTAG | -0.54 |
| TTACATATCGGGTTTCGATTAGTGCTA | 3.89 |
| AGCCGTCTCCACCTGGGCAAGTGCTAG | -0.455 |
| TCATTTCTGTGTCACAGACTGTGCTAG | 2.17 |
| GACGGTTTCGACTTTAGGGACGTGCTA | 5.07 |
| TTAGGTTTTCTTCTCCTTTAGTGCTAG | 1.62 |
| TTAGATATCAGTATAGATTAGTGCTAG | -0.136 |
| GACAGACTGGGGTATCGGGACGTGCTA | -0.673 |
| TGAGGACTGGGGTTTCGGTTAGTGCTA | 2.43 |
| TCAGGTCTCGGTTTCGGTTAGTGCTAG | 7.12 |

Set 3
Target: RNA binding protein fox-1 homolog 2, RRM domain, GST-SBP tag (RBFOX2, Homo sapiens, UniProt O43251-10, residues 100-194)
Method: RNA Bind-n-Seq
Form: RNA
Matrix: in vitro
Tested at: 365 nM
Setting: natural RNA segment, single round, ends assumed
Baseline: no-protein control
Reading: higher = stronger binding
All sequences stand within: GGGAGUUCUACAGUCCGACGAUC … UGGAAUUCUCGGGUGCCAA
Residues (chain): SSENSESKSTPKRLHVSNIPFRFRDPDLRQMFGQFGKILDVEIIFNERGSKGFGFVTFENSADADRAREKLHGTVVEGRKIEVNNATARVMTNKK
| Strand | RBNS enrichment (R) |
| --- | --- |
| GACAAACAGACACACUGCCCCGGACAGCAGACAGACAGACACGUUGCCCCGGACAGCAGACAGAAAAACUGCCCCGGACAGCAGACAGACAGACAAACUGCCCCAGACAG | 0.44 |
| GUCAUCUGACCCCUGUCCGUCUCCUUGUCCCUGCUUCAUGUUUGGGGGCCUUUCUUUAACUGCCUUCCUGGCUUAGCUCAGAUGGCAGAUGAGAGUGUAGUCAAGGGCCU | 0.254 |
| CAGCUGCCCCGAUUGUGGCAAGACCUUCAACCGCUCCUCUACACUCAUUCAGCACCAGCGUUCCCACACAGGCGAGAGGCCGUACCGCUGCGCUGUGUGUGGCAAGGGCU | 0.6 |
| AAGCACAGAAUAUUUUUAUAUUUCCUUUAUGUGAAUUUUUAAGCUGCAAAUCUGAUGGCCUUAAUUUCCUUUUUGACACUGAAAGUUUUGUAAAAGAAAUCAUGUCCAUA | 0.504 |
| AGCCAGUUACAGCUCCCCGGCUCUUCUGUGUGGCAGAGCGUCGUUUCCGGGCCCUCAGGGCUGGGGAGCUCAGUUCCCAUUGCUUGUGCUCAGGGCUGAGUCUUAAAGAA | 1.73 |
| GCUUUUUUUAAAUUGCUUUAUCUGUAUAUCUGAACUCUUGAAACUUAUAGCUAAAACACUAGGAUUUAUCUGCAGUGUUCAGGGAGAUAAUUCUGCCUUUAAUUGUCUAA | 0.499 |
| AGGCAGUGCCCUUUCCUCCCACUUUUCCUCCCCCAUAGCCACAGGCCUCUGCUCCUGCUCCUGCCUGCAUGUUCUCUCUGUUGUUGGAGCCUGGAGCCUUGCUCUCUGGG | 4.65 |
| AAAGGCAGACCCAGGGCUCCUCUAGCCUCAUACCCGUGCCCUCACAGAGCCAUGCCCCGGCACCUCUGCCCUGUGUCUUUCAUACCUCUACAUGUCUGCUUGAGAUAUUU | 3.07 |
| GAAAUGCGGACACCCCGAGCGAGCACCCCAAAGUGCACAAAGCUGAGUAAAAAGCUGCCCCCUUCAAACAGAACUAGACUCAGUUUUCAAUUCCAUCCUAAAACUCCUUU | 0.543 |
| ACCUCUGCUGUGUGUCUCUGCCAAUCUGCUGGGCUGGUCCCUCUCAUUUUUACCAGUCUGAGUGACAGGUCCCCUUCGCUCAUCAUUCAGAUGGCUUUCCAGAUGACCAG | 0.396 |
| UUUGCAAAGUGACUCUGACUAACGCGGUUAAGAACAUCUGAACUUGGUUUCCCAAAUGACUCAGUUUUUGCUUUCUUUUCUGAAGCCCGAGUGCUAGGUAGGAAUGGCCA | 0.387 |
| AGUUGUUCAUGGAAUUGAUGGGGGAGGUAGAGGGGGUCCUCUAACAAAUAUGUCUGGUGGUGAAUGUGAAAGCUUUCCAUGAGAUGCCAAAGACCCUACAUCGAAUUUCC | 0.334 |

Set 4
Target: RING finger protein unkempt homolog, zinc fingers 1-6, GST-SBP tag (UNK, Homo sapiens, UniProt Q9C0B0, residues 30-357)
UniProt Q9C0B0, sequence (30-357, looked up): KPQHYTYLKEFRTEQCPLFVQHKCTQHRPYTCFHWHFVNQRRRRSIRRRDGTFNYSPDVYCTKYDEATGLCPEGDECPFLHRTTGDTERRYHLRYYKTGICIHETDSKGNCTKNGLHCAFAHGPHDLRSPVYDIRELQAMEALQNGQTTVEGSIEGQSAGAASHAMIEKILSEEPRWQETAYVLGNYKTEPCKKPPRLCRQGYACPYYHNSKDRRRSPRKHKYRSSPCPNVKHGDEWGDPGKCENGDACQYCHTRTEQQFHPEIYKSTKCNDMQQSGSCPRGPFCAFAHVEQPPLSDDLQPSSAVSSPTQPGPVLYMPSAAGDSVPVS
Method: RNA Bind-n-Seq
Form: RNA
Matrix: in vitro
Tested at: not given
Setting: RNA with constant flanks, human and mouse sites, ends assumed
Baseline: input RNA pool
Reading: higher = stronger binding
All sequences stand within: GGGAGUUCUACAGUCCGACGAUC … CAACAGAGGAUUGAGCAUCA
| Strand | bound/input enrichment |
| --- | --- |
| GAAAAUCCAUAUGACCUUGAUGCUUGGAGCAUUCUCAUUCGAGAGGCACAGAAUCAACCUAUAGACAAAGCACGGAAGACUUACGAACGCCUUGUUGCCCAGUUCCCCAGUUCUGGCAGA | 0.148 ratio |
| AUGGCUUACCAUCAUGACAGCAGACGGAUAUUUGUGGGCCAGGAUAAUGGAGCUGUAAUGGAAUUUCACGUUUCUGAAGAUUUUAAUAAAAUGAACUUUAUCAAGACCUACCCAGCUCAU | 0.117 ratio |
| AUAUAGACCUAUGAUGUACAGGUACGACAUGUAUAGGUUACCUAGAUGUUAUGAGAAAUUUUAGUUUAUUGUGAGUACUCAAGUUGCUUAGAGAGCCACCAGGGUGAUUUGCUGCUGGCU | 167 ratio |
| GAGGUGGGGGCGCUGCGGGCGCGUGCGCGCCGGCCGCCUUCCCGUUGUCGCCCGCGUUCUUGCCGUCCCGGCAUACGUCGGCGCGCGCCUGCGCCUGCAUCCGGCUUCGGACGCUUGCGA | 0.394 ratio |
| CUCAGCCCAGGGCCCCAAAUCAACGUGCUGGAAGAUCCAGACUACCUAGAUCUCACACAAAUAGAAGCAAGCAAACCUCACAGUACCCAAUUUUUGCCACCAGUUGAGAUGAUUGGUCCU | 0.905 ratio |
| UUUUCCUCUUCUUCCUCAUCCUCCUCUGGACCUAGGACUUUCUACCCUCGCCAGGGCGCCACUAGCAAAUAUCUGAUUGGAUGGAAAAAGCCAGAAGGAACCAUUAACUCCGUGGGAUUU | 1.67 ratio |
| AGAGAUCAAAGUAAAGGUAUUCUAAAGAUUUCAGCUGUCCCUGAACUAACUGAUGUGAAUACUGGAAAACCAGUAUCUCUCUCUAGUUCUUAUUUUCACAGAGAGAAAUCGAAUAUUUUC | 0.18 ratio |
| AAAGGCAGCUGUGUUAUUUCAUAAAUAACUUGGGAGAAACUGCAUCCUAAGUGGAAGAACUAGUUUGUUUUAGUUUUCCCAGAUAAAACCAACAUGCUUUUUAAGGAAGGAAGAAUGAAA | 0.209 ratio |
| CCUUUGGCAGAAAUUUAUGAGCAACACGUCACUAAAGUGAAUGAAGAGGUAGCCAAACUUCGUCGGCGUCUCAUGGAACUGAUCAGCUUAGUUCAAGAAGUGGAAAGGAAUGUAGAAGCU | 0.82 ratio |
| CCAGCAGAGAAGAAAUGUGGAGCGGAAACCCAGCACGAGGGGCUAGAACUCAGGGUAGAGAAUUUGCAGGCGGUGCAGACAGACUUUAGCUCCGAUCCACUGCAGAAAGUUGUGUGCUUC | 0.424 ratio |
| AUCCAGGCAGCUGACAGCACAGCCGUGAAUGGCAGCAUCACACCCACAGACAAAAAGAUAGGAUUUUUGGGCCUUGGUCUCAUGGGAAGUGGAAUCGUCUCCAACUUGCUAAAAAUGGGU | 0.415 ratio |

Some of these lines once more (set 1):
| Strand | E-score |
| --- | --- |
| TCCCCGAA | 0.0611 |
| CCCGGCAC | 0.0301 |
| ACGGAACC | -0.0166 |
| GTTATCGA | -0.23 |
| ACCCGAGG | 0.0455 |
| GTTGCGAA | 0.133 |
| GATTATCC | 0.0616 |
| AGCGAGAC | -0.0642 |
